Experimental data collected from several papers.
Each line is one published result; not all experiments were run side by side. “And” joins repeats or separate records; there may be more than shown. ± gives the spread as reported.
HUNK: Hormonally up-regulated neu tumor-associated kinase (HUNK, Homo sapiens, UniProt P57058)
Sequence of UniProt P57058 (whole entry, looked up): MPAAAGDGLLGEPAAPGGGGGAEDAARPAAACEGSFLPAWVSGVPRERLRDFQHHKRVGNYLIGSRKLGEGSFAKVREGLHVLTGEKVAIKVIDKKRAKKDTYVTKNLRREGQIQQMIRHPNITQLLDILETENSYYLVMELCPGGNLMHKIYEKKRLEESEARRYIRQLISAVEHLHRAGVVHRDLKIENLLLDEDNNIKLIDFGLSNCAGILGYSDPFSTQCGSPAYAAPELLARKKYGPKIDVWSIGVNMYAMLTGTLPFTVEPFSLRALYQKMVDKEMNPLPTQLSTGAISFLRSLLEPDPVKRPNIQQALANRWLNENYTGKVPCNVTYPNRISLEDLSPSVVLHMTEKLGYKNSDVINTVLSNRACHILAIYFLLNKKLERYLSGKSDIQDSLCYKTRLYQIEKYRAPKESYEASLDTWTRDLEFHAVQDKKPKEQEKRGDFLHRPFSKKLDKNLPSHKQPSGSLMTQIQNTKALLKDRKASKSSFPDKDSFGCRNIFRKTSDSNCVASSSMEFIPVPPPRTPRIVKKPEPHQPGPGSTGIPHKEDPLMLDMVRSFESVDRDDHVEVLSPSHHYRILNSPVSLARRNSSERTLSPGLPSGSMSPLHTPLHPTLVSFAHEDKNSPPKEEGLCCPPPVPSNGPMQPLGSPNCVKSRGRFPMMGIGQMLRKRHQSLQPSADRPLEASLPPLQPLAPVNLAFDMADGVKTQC
EPHB4: Ephrin type-B receptor 4 (EPHB4, Homo sapiens, UniProt P54760)
Sequence of UniProt P54760 (whole entry, looked up): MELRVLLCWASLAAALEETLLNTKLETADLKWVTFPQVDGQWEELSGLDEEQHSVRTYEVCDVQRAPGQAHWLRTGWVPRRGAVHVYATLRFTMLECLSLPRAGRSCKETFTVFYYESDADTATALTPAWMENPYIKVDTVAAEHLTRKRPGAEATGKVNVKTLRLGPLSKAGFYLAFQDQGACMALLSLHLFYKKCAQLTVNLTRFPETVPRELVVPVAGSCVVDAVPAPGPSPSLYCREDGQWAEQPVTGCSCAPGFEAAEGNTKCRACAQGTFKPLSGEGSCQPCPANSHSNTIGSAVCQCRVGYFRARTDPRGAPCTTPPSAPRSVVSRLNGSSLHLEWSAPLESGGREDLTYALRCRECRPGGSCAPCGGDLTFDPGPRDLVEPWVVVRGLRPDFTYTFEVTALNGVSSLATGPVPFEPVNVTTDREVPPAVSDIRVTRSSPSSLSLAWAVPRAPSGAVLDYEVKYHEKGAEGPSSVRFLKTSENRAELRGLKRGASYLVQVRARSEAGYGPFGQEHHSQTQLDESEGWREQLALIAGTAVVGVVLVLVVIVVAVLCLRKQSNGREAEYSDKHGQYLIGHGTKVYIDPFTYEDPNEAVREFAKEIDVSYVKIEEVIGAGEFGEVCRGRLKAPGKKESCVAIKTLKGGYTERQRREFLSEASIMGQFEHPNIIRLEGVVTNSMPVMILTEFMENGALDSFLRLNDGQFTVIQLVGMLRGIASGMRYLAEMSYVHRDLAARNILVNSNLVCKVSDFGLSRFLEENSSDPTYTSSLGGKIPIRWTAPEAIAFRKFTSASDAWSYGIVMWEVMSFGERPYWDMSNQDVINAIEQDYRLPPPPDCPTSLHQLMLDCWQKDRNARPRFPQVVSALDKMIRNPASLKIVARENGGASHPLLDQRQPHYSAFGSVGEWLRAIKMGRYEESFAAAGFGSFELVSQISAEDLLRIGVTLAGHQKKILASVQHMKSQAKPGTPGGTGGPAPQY
KDM4B: Lysine-specific demethylase 4B (KDM4B, Homo sapiens, UniProt O94953)
Sequence of UniProt O94953 (whole entry, looked up): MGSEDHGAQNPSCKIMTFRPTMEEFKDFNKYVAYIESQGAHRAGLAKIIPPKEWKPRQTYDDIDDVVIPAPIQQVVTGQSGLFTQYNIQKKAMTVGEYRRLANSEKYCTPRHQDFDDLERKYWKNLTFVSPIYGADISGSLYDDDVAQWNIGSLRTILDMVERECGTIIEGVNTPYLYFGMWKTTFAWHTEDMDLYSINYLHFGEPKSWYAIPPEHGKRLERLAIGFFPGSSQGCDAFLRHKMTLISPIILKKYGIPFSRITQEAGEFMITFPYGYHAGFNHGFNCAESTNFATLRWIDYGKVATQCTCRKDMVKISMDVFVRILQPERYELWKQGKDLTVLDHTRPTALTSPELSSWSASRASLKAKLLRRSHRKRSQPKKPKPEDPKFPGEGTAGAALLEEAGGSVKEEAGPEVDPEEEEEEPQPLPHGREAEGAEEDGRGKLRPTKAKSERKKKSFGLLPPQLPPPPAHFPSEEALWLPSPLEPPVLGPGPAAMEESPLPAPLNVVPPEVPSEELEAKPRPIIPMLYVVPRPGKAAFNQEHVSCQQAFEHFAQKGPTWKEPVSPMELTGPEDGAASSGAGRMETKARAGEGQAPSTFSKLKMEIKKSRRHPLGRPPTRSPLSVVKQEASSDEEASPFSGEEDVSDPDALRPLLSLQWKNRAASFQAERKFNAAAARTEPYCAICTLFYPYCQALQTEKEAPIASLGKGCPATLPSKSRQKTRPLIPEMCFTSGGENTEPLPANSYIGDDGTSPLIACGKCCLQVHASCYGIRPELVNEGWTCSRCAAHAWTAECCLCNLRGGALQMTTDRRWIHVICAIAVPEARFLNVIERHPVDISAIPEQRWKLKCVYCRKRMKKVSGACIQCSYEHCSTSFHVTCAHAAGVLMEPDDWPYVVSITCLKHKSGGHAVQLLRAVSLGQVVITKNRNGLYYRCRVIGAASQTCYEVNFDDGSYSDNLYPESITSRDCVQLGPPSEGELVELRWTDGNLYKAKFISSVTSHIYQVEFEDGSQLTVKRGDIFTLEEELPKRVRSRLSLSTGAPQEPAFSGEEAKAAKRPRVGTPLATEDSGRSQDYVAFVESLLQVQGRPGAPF
Sequence of UniProt Q92626 (whole entry, looked up): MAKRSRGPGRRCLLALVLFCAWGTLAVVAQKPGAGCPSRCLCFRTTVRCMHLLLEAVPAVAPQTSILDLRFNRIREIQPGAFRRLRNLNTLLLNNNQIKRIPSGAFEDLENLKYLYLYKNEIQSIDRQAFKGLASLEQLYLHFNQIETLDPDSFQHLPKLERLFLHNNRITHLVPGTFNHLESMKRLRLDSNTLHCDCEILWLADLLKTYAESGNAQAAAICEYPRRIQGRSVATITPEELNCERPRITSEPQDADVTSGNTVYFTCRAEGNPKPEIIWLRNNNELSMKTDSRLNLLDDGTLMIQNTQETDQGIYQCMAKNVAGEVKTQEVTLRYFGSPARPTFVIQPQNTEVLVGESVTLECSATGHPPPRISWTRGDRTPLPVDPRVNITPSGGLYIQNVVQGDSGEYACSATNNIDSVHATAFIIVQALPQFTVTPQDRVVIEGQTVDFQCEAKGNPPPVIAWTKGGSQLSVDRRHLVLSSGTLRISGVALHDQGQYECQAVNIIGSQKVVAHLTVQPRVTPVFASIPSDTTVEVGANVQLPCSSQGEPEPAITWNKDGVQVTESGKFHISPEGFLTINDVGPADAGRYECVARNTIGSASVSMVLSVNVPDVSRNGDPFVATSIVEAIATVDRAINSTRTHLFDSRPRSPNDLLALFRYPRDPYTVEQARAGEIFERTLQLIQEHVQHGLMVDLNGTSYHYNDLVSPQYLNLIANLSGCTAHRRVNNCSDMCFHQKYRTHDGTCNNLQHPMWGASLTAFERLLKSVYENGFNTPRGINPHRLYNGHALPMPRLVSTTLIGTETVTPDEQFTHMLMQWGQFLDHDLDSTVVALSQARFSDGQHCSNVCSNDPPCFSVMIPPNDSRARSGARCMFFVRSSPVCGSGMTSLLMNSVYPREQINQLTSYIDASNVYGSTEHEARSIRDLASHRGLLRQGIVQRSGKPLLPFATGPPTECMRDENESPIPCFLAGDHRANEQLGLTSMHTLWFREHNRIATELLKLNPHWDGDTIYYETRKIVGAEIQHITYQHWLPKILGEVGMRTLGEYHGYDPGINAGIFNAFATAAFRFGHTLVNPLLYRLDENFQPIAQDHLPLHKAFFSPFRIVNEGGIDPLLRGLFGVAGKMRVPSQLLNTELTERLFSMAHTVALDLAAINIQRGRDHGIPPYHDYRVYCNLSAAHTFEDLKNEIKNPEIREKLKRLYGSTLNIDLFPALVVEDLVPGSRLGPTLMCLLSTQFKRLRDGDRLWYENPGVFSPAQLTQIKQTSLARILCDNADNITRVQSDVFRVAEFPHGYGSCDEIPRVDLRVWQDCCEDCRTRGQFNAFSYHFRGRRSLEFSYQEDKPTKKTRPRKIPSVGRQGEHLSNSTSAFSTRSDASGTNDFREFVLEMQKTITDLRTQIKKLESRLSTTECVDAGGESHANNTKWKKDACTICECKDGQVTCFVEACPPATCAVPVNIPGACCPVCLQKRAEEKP
Sequence of UniProt Q8WTQ7 (whole entry, looked up): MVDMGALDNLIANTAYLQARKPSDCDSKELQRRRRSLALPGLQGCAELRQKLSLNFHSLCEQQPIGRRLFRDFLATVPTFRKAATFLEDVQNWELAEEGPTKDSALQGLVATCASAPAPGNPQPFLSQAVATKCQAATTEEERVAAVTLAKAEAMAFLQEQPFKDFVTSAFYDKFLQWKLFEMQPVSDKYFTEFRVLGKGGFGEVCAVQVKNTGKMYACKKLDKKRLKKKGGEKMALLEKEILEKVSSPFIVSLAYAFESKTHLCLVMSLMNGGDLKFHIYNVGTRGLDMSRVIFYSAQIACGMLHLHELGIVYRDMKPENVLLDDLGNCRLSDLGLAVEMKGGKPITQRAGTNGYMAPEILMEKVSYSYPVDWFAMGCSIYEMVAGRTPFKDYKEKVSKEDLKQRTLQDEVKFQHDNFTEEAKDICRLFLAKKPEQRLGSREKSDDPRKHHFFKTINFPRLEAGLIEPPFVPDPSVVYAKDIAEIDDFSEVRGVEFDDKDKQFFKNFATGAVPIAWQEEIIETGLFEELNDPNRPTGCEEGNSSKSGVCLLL

`COc1cc(-c2cncc3c2CN(C)Cc2cc(N4CCNCC4)ccc2-3)cc(OC)c1OC` gave a remaining activity of 3% (ACVRL1 (Homo sapiens, UniProt P37023); kinase activity; 1 µM, human enzyme, added: ATP 10 µM; baseline: DMSO control).
For `CC(C)Oc1cc(N2CCN(C)CC2)ccc1Nc1nc(N)n(C(=O)NCc2ccccc2S(=O)(=O)C(C)C)n1`, the remaining activity was 12% (HUNK; enzyme activity; 10 µM; baseline: control).
`CN(C)CC#Cc1ccc2[nH]c3c(c2c1)-c1nc(N)ncc1CCC3` gave a remaining activity of 70% (MARK3 (Homo sapiens, UniProt P27448); kinase activity, inhibitor, radiometric; 1 µM, added: ATP at Km).
`C=CC(=O)N1CCC[C@@H](n2nc(-c3ccc(Oc4ccccc4)cc3)c3c(N)ncnc32)C1` has a remaining activity of 149% (EPHB4; 1 µM).
For `COc1cc(Nc2ncc3c(n2)-c2ccc(Cl)cc2C(c2c(F)cccc2OC)=NC3)ccc1C(=O)O`, the remaining activity was 93% (PTK6; kinase activity; 1 µM).
With `Fc1ccc(-c2nn3cc(F)ccc3c2-c2ccncc2)cc1` the remaining activity was 15.8% (CSNK1A1 (Homo sapiens, UniProt P48729); kinase activity, ADP-Glo; 1.176 µM; baseline: untreated).
`Cc1cc(Nc2cc(N3CCN(C)CC3)nc(Sc3ccc(NC(=O)C4CC4)cc3)n2)[nH]n1` gave a remaining activity of 126% (GRK7 (Homo sapiens, UniProt Q8WTQ7); kinase activity, KinaseProfiler; 0.03 µM, species human; baseline: control).
`COc1cc(F)ccc1-c1ncnc(Nc2cccc(C[S@](C)(=N)=O)c2)n1` has a remaining activity of 88% (DYRK2 (Homo sapiens, UniProt Q92630); kinase activity; 10 µM, added: 10 µM ATP).
For `NC/C(=C\F)COc1cccc(Cn2c(=S)[nH]c(=O)c3[nH]cnc32)c1`, the remaining activity was 11.9% and 11.5% (Peroxidasin homolog (PXDN, Homo sapiens, UniProt Q92626); enzyme activity, inhibitor, Amplex UltraRed; 40 µM; baseline: control).
`N[C@@H]1CC[C@@H](c2ccc(Cl)c(Cl)c2)c2ccccc21` has a remaining activity of 22.8% (SLC6A3 (Homo sapiens, UniProt Q01959, S422A); dopamine uptake; 0.004 µM, 0.03333 h, S422A mutant, added: [3H]dopamine; baseline: no inhibitor).
The remaining activity of `OC[C@H]1OC(O)[C@H](O)[C@@H](O)[C@@H]1O` (some centres unmarked) is reported as 107 ± 2.4% (Alpha-L-fucosidase AlfC (Lacticaseibacillus rhamnosus, UniProt A0A809N2S1); inhibitor; 1000 µM, 5 min; baseline: untreated).
With `COc1cc(N2CCN(C)CC2)ccc1Nc1nc(N)n(C(=O)NCc2c(Cl)cccc2Cl)n1` the remaining activity was 8% (HUNK; enzyme activity; 10 µM; baseline: control).
`CNc1ncc2c(/C=C/C(=O)N3CCC(OC)CC3)nn(Cc3cccc(C(F)(F)F)c3)c2n1` has a remaining activity of 99% (Cyclin-dependent kinase 10, with cyclin Q (CDK10, Homo sapiens, UniProt Q15131); inhibitor; 1 µM; baseline: control).
With `O=C(O)c1ccc(Nc2ncc3c(n2)-c2ccc(Cl)cc2C(c2c(F)cccc2F)=NC3)cc1` the remaining activity was 99% (human IKKß(h); kinase activity; 1 µM).
`C[C@H]1[C@H](OC(=O)CCC(=O)O)O[C@@H]2O[C@@]3(C)CC[C@H]4[C@H](C)CC[C@@H]1[C@@]24OO3` has a remaining activity of 44.7% (Non-structural polyprotein pORF1, helicase domain (Hepatitis E virus genotype 1, UniProt P33424); ATPase activity, inhibitor, colorimetric; 78 µM; baseline: untreated).
The remaining activity of `C[C@@H](Oc1ccc(S(C)(=O)=O)cc1C(=O)N1C[C@@H]2C[C@]2(c2cc(C(F)(F)F)on2)C1)C(F)(F)F` is reported as 82.2% (SLC6A9 (Homo sapiens, UniProt P48067, L476T); glycine uptake, inhibitor, [3H]glycine uptake; 0.0001 µM, L422T mutant, log concentration -1, added: [3H]glycine; baseline: no inhibitor).
For `COc1cc(N2CCN(C)CC2)ccc1Nc1nc(N)n(C(=O)NCc2ccccc2S(=O)(=O)C(C)C)n1`, the remaining activity was 16% (GRK4 (Homo sapiens, UniProt P32298); enzyme activity; 10 µM; baseline: control).
The remaining activity of `O=C1NC(=O)/C(=C/c2ccc(-c3ccc(F)cc3O)o2)S1` is reported as 94% (Insulin receptor (INSR, Homo sapiens, UniProt P06213); enzyme activity; 10 µM).
`COc1cc(N2CCN(C)CC2)ccc1Nc1nc(N)n(C(=S)NCc2c(Cl)cccc2Cl)n1` gave a remaining activity of 6.6% (NEK5 (Homo sapiens, UniProt Q6P3R8); enzyme activity; 10 µM; baseline: control).
For `COC1CC(OC(=O)c2ccc([N+](=O)[O-])cc2)C(OC(=O)c2ccc([N+](=O)[O-])cc2)C(C)O1` (centres unmarked), the remaining activity was 64% (KDM4B; concentration not given).
For `O=C(NC1CCC1)c1ccc2nc(-c3cccc(NS(=O)(=O)NCCN4CCCCC4)c3)cn2c1`, the remaining activity was 85% (EPHB4; enzyme activity; 10 µM).
The remaining activity of `COc1ccc(F)cc1C(=O)NCc1ccc(-c2nn([C@@H](C)C(F)(F)F)c(N)c2C(N)=O)cc1` is reported as 81 ± 0.5% (FGR (Homo sapiens, UniProt P09769); kinase activity, inhibitor, HotSpot radiometric; 100 nM, added: ATP 10 µM).
For `C/C(CC(O)(C(F)(F)F)C(F)(F)F)=N/Nc1ccc([N+](=O)[O-])cc1[N+](=O)[O-]`, the remaining activity was 56% (KDM4B; concentration not given).

Repeated from above:
For `NC/C(=C\F)COc1cccc(Cn2c(=S)[nH]c(=O)c3[nH]cnc32)c1`, the remaining activity was 11.9% and 11.5% (Peroxidasin homolog (PXDN, Homo sapiens, UniProt Q92626); enzyme activity, inhibitor, Amplex UltraRed; 40 µM; baseline: control).
For `COc1cc(Nc2ncc3c(n2)-c2ccc(Cl)cc2C(c2c(F)cccc2OC)=NC3)ccc1C(=O)O`, the remaining activity was 93% (PTK6; kinase activity; 1 µM).
